Published values of several laboratories.
± gives the spread as reported.
sdiA: Regulatory protein SdiA (sdiA, Escherichia coli, UniProt P07026)
Chain of UniProt P07026 (whole entry, looked up): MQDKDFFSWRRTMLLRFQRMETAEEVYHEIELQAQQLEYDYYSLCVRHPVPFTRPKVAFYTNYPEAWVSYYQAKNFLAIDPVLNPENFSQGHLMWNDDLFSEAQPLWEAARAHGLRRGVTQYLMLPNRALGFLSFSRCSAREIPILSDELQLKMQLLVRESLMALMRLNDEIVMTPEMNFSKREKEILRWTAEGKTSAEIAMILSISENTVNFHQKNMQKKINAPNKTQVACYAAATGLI
serotonin receptor-like protein: serotonin receptor-like protein (Schistosoma mansoni, UniProt A0A173FEI8)
Chain of UniProt P49327 (whole entry, looked up): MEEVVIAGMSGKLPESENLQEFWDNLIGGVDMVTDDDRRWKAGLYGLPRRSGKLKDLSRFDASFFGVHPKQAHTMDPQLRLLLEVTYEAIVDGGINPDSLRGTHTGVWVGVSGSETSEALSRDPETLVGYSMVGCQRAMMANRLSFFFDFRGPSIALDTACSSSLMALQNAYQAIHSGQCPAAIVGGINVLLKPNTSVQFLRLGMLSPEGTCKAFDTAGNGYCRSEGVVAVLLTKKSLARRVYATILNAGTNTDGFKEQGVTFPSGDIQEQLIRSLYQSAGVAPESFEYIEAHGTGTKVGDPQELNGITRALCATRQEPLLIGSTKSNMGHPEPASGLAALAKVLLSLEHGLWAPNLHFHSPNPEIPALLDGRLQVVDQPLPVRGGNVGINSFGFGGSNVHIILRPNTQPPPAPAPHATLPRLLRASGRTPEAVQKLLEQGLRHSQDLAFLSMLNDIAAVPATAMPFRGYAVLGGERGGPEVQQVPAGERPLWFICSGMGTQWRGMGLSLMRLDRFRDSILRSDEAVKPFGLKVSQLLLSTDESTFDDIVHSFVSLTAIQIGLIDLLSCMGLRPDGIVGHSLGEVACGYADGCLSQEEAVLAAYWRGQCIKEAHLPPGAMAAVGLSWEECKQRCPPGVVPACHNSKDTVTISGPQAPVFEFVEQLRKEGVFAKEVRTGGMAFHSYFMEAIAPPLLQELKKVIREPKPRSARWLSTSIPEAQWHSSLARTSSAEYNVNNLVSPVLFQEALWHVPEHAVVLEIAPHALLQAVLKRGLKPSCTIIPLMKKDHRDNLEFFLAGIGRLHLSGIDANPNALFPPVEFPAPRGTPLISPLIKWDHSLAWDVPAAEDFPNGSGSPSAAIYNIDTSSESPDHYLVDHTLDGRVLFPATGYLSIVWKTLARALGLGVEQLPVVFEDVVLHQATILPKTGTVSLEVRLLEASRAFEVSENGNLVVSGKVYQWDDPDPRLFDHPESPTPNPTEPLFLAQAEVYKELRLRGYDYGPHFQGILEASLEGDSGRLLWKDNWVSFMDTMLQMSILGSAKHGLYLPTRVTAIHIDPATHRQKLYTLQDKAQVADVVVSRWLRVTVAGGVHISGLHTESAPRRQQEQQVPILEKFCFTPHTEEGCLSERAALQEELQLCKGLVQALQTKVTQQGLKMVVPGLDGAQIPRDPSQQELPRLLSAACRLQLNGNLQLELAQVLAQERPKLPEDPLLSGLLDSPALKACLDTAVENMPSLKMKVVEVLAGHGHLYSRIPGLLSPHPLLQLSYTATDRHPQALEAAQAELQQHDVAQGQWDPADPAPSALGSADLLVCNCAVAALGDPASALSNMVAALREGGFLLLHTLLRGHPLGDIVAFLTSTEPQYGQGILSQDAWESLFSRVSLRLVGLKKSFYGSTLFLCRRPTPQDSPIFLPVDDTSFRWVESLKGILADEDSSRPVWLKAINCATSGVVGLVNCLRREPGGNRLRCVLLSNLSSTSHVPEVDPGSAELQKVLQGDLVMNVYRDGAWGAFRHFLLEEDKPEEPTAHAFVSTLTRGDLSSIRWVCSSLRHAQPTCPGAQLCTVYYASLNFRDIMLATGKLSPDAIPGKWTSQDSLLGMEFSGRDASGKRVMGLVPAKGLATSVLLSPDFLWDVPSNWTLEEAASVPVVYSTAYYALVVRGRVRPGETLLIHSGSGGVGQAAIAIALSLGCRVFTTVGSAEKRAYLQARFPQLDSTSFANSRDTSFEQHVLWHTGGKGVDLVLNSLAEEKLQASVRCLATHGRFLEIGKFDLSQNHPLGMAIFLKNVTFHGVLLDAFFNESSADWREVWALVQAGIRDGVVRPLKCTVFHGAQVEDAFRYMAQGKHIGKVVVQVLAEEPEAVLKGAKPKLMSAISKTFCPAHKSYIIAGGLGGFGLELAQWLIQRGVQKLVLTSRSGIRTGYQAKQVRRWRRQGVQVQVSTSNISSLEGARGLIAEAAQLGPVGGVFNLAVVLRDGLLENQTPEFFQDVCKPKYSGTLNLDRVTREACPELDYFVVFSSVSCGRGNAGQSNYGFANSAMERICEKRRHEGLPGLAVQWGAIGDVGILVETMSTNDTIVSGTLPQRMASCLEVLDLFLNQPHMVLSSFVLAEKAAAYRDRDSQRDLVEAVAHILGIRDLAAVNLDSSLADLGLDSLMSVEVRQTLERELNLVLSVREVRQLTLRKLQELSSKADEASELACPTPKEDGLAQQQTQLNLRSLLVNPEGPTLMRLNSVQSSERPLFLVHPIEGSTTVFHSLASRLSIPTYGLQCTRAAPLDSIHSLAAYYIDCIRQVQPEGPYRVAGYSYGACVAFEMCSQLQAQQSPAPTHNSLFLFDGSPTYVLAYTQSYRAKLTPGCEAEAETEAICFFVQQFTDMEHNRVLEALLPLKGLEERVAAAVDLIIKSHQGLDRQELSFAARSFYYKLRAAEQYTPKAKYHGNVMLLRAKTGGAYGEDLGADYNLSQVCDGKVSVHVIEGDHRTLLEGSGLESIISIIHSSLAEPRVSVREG
Chain of UniProt Q96RJ0 (whole entry, looked up): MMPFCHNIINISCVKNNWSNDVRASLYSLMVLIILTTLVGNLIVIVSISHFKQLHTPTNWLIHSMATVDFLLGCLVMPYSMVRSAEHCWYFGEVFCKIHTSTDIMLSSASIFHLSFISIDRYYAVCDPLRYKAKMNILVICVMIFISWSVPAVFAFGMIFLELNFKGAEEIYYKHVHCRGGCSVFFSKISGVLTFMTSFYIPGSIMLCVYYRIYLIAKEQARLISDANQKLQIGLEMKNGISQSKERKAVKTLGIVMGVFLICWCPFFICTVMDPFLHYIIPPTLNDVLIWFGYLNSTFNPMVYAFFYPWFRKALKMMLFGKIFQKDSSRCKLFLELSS
Chain of UniProt Q0P543 (whole entry, looked up): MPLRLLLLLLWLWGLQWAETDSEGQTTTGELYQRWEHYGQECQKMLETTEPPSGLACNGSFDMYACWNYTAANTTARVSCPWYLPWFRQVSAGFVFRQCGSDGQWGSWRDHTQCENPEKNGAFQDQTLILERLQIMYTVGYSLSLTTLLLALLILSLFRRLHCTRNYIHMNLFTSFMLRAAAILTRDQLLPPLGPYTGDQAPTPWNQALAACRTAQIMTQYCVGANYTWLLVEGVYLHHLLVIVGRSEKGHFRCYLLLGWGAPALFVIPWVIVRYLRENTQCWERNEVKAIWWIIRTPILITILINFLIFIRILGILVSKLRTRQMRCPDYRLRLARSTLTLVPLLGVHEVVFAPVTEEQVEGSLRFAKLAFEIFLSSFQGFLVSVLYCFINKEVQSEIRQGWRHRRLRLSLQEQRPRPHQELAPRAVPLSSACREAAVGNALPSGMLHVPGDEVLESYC
Chain of UniProt P50613 (whole entry, looked up): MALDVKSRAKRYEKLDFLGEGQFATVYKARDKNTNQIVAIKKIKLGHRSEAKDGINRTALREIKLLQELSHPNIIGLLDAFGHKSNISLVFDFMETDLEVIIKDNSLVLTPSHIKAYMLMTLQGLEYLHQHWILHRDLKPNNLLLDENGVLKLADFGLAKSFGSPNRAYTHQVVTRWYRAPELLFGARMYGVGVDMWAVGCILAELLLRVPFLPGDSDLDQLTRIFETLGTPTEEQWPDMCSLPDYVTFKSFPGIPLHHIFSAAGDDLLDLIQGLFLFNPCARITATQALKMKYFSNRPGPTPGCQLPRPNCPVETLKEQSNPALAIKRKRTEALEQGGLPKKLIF
Chain of UniProt Q60893 (whole entry, looked up): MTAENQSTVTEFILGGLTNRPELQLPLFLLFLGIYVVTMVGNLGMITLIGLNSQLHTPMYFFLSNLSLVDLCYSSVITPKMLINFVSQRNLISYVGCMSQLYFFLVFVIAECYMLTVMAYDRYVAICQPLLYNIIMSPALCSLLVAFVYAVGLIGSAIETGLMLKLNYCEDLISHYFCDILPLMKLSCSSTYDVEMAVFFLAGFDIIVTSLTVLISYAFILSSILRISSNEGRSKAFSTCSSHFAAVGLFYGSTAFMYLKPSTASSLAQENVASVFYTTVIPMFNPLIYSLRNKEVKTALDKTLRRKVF
Chain of UniProt Q14654 (whole entry, looked up): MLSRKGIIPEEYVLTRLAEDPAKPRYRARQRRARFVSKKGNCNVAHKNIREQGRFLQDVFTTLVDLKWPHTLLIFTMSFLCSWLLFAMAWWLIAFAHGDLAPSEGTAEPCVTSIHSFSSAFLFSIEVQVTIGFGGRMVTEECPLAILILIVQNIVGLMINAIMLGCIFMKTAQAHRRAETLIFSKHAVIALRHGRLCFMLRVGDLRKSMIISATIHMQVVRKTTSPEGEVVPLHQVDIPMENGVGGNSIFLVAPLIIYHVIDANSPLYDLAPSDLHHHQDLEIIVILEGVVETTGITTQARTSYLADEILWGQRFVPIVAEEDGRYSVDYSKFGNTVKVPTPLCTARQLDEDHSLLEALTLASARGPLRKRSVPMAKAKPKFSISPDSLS

`Cc1cc(SCc2sc(-c3ccc(C(F)(F)F)c(F)c3)nc2C)ccc1OCC(=O)O` gave an Emax of 100% (Peroxisome proliferator-activated receptor delta (Rattus norvegicus, UniProt Q62879); reporter gene, agonist, luciferase reporter; rat receptor; reference: internal maximal activation control).
`CCCCCCCCCCCCCCCC(=O)N[C@H]1CCOC1=O` has an Emax of 91.3% (sdiA).
The Emax of `CC[C@H](C)[C@H](NC(=O)[C@H](CO)NC(=O)[C@H](Cc1ccc(O)cc1)NC(=O)[C@H](CC(=O)O)NC(=O)[C@H](CO)NC(=O)[C@@H](NC(=O)[C@H](Cc1ccccc1)NC(=O)[C@@H](NC(=O)CNC(=O)[C@H](CCC(=O)O)NC(=O)[C@H](C)NC(=O)[C@@H](N)Cc1ccc(O)cc1)[C@@H](C)O)[C@@H](C)CC)C(=O)N[C@@H](C)C(=O)N[C@@H](CCSC)C(=O)N[C@@H](CC(=O)O)C(=O)N[C@@H](CCCCN)C(=O)N[C@H](C(=O)N[C@@H](Cc1c[nH]cn1)C(=O)N[C@@H](CCC(N)=O)C(=O)N[C@@H](CCC(N)=O)C(=O)N[C@@H](CC(=O)O)C(=O)N[C@@H](Cc1ccccc1)C(=O)N[C@H](C(=O)N[C@@H](CC(N)=O)C(=O)N[C@@H](Cc1c[nH]c2ccccc12)C(=O)N[C@@H](CC(C)C)C(=O)N[C@@H](CC(C)C)C(=O)N[C@@H](C)C(=O)N[C@@H](CCC(N)=O)C(=O)N[C@@H](CCCCN)C(=O)NCC(=O)N[C@@H](CCCCN)C(=O)N[C@@H](CCCCN)C(=O)N[C@@H](CC(N)=O)C(=O)N[C@@H](CC(=O)O)C(=O)N[C@@H](Cc1c[nH]c2ccccc12)C(=O)N[C@@H](CCCCN)C(=O)N[C@@H](Cc1c[nH]cn1)C(=O)N[C@@H](CC(N)=O)C(=O)N[C@H](C(=O)N[C@H](C(=O)N[C@@H](CCC(N)=O)C(=O)O)[C@@H](C)O)[C@@H](C)CC)C(C)C)[C@@H](C)CC` is reported as 84% (Gastric inhibitory polypeptide receptor (Mus musculus, UniProt Q0P543); cAMP accumulation, agonist; mouse receptor-expressing cells).
The relative abundance of `C[C@H]1CN(c2n[nH]c3nc(N[C@H]4CC[C@H](NS(=O)(=O)CCC(F)(F)F)CC4)ncc23)CCO1` is reported as 1.23 (Fatty acid synthase (FASN, Homo sapiens, UniProt P49327); inhibitor, Kinobeads competition profiling; 0.8 µM; reference: vehicle).
`O=C(c1ccc(Cl)cc1)N1CCN2C(=O)N(OC(=O)N3CCOc4ccccc43)C(=O)C2C1` (stereo not shown): “mean protein ratio” 1.05 (ACTB (Homo sapiens, UniProt P60709); MS-based ABPP; SW-620 conditioned medium; 10 µM; reference: compound over DMSO, lower = more inhibition).
For `NCCc1c[nH]c2ccc(C(N)=O)cc12`, the Emax was 15 ± 1% (serotonin receptor-like protein; cAMP level, agonist, GloSensor luminescence; reference: 5-HT maximal response).
With `COc1ccc(N2C(=O)N(c3c(C)cccc3Cl)Cc3cnc(Nc4ccc(C5CCN(C)CC5)cc4OC)nc32)nc1` the inhibition was -1.19% (CDK7 (Homo sapiens, UniProt P50613); kinase activity; 0.5 µM).
`NCCc1ccc(O)cc1` has an Emax of 104 ± 0.2% (TAAR1 (Homo sapiens, UniProt Q96RJ0)).
For `CCCCCCCCCC(=O)NC1CCCC1`, the Emax was 102% (sdiA).
For `Nc1ncnc2c1ncn2[C@@H]1O[C@H](COP(=O)(O)OP(=O)(O)OP(=O)(O)O)[C@@H](O)[C@H]1O`, “open time constant” read 0.9 ms (ATP-sensitive inward rectifier potassium channel 11 (Homo sapiens, UniProt Q14654); single-channel patch clamp; 100 µM, -25 mV).
`COc1ccc(C=O)cc1` gave an Emax of 100 ± 5% (Or8a1 (Mus musculus, UniProt Q60893); odorant-evoked current, agonist; isolated olfactory neurons; reference: acetophenone saturated response).
The Emax of `O=C(CCc1ccc([N+](=O)[O-])cc1)N[C@H]1CCOC1=O` is reported as 102% (sdiA).
The Emax of `NCCc1c[nH]c2ccccc12` is reported as 36 ± 6% (serotonin receptor-like protein; cAMP level, agonist, GloSensor luminescence; reference: 5-HT maximal response).

A few entries again:
The Emax of `CC[C@H](C)[C@H](NC(=O)[C@H](CO)NC(=O)[C@H](Cc1ccc(O)cc1)NC(=O)[C@H](CC(=O)O)NC(=O)[C@H](CO)NC(=O)[C@@H](NC(=O)[C@H](Cc1ccccc1)NC(=O)[C@@H](NC(=O)CNC(=O)[C@H](CCC(=O)O)NC(=O)[C@H](C)NC(=O)[C@@H](N)Cc1ccc(O)cc1)[C@@H](C)O)[C@@H](C)CC)C(=O)N[C@@H](C)C(=O)N[C@@H](CCSC)C(=O)N[C@@H](CC(=O)O)C(=O)N[C@@H](CCCCN)C(=O)N[C@H](C(=O)N[C@@H](Cc1c[nH]cn1)C(=O)N[C@@H](CCC(N)=O)C(=O)N[C@@H](CCC(N)=O)C(=O)N[C@@H](CC(=O)O)C(=O)N[C@@H](Cc1ccccc1)C(=O)N[C@H](C(=O)N[C@@H](CC(N)=O)C(=O)N[C@@H](Cc1c[nH]c2ccccc12)C(=O)N[C@@H](CC(C)C)C(=O)N[C@@H](CC(C)C)C(=O)N[C@@H](C)C(=O)N[C@@H](CCC(N)=O)C(=O)N[C@@H](CCCCN)C(=O)NCC(=O)N[C@@H](CCCCN)C(=O)N[C@@H](CCCCN)C(=O)N[C@@H](CC(N)=O)C(=O)N[C@@H](CC(=O)O)C(=O)N[C@@H](Cc1c[nH]c2ccccc12)C(=O)N[C@@H](CCCCN)C(=O)N[C@@H](Cc1c[nH]cn1)C(=O)N[C@@H](CC(N)=O)C(=O)N[C@H](C(=O)N[C@H](C(=O)N[C@@H](CCC(N)=O)C(=O)O)[C@@H](C)O)[C@@H](C)CC)C(C)C)[C@@H](C)CC` is reported as 84% (Gastric inhibitory polypeptide receptor (Mus musculus, UniProt Q0P543); cAMP accumulation, agonist; mouse receptor-expressing cells).
For `NCCc1c[nH]c2ccc(C(N)=O)cc12`, the Emax was 15 ± 1% (serotonin receptor-like protein; cAMP level, agonist, GloSensor luminescence; reference: 5-HT maximal response).
